Published values from different studies.
Compare with care: the assays were run in different laboratories. Numbers after ± are the reported error.

Cl.[2H]C([2H])([2H])CC(=O)c1cnc(NC(=O)C2CC2)cc1Nc1cccc(-c2ncn(C([2H])([2H])[2H])n2)c1OC has an IC50 of 0.048 µg/mL (IFNα-induced STAT phosphorylation; human whole blood).
For CC(C)c1ccc(N(C)c2ccc3c(c2)OCC[C@H]3CNc2cnccc2C(=O)O)cc1, the IC50 was 0.149 µM (organoid viability; colorectal carcinoma organoid; patient-derived organoid model).
For O=[N+]([O-])c1ccc2c(c1)C=[N+]1N3C(=[O+][Cu-2]1([Cl])[O]2)c1ccccc1NC3c1cc([N+](=O)[O-])ccc1O (stereo not shown), the IC50 was 531 µM (photosynthetic electron transport; Spinacia oleracea chloroplasts).
The IC50 of CO[C@H]1CCN(Cc2c(C)cc(C)c3[nH]ccc23)[C@H](CO)C1 is reported as 24 ± 1 µM (MAC formation, inhibitor, item: MAC deposition; human whole blood 50%; with: zymosan).
For O=C1c2ccccc2NC(c2ccc(O)c(O)c2)N1/N=C/c1ccc(O)c(O)c1 (stereo not shown), the IC50 was 857 µM (photosynthetic electron transport; Spinacia oleracea chloroplasts).
For O=C(COC(=O)c1ccccc1Nc1cccc(C(F)(F)F)c1)Nc1cccc(C(F)(F)F)c1, the IC50 was 477 ± 18 µM (nitric oxide scavenging, Griess; 30 min, 25 °C, with: sodium nitroprusside 5 mM).
The IC50 of CCOC(=O)C1=C(CSC2=NCCS2)NC(=O)NC1c1ccc(C)cc1 (stereo not shown) is reported as 144 µM (nitric oxide scavenging).
With COc1cc([C@H](O)[C@H](O)CO)ccc1O the IC50 was 24.2 ± 0.69 µg/mL (DPPH radical scavenging).
CN1CC[C@@H](COc2cnc(C#N)cc2-c2ccn3nc(NC(=O)C4CC4)cc3c2)C1 has an IC50 of 0.73 µM (TNF release; human whole blood; with: LPS).
CCOC(=O)C1=C(CSC2=NCCS2)NC(=O)NC1c1ccccc1 (stereo not shown) has an IC50 of 247 µM (nitric oxide scavenging).
